Results from different studies.
Lines come from different studies, so protocols differ. ± marks the error that the study gave. Values after ≈ are worked out from the molar mass of the structure shown.
Organism: Escherichia coli

Compound = CN1CC(=O)N=C1N.C[C@H](CCC(=O)O)[C@H]1CC[C@H]2[C@@H]3CC[C@@H]4C[C@H](O)CC[C@]4(C)[C@H]3C[C@H](O)[C@]12C; system = TISTR 117; setting = 1 mg per disc, 18 to 24 h, 37 °C, 6 mm disc; endpoint = inhibition zone diameter; result = 10.9 ± 1 mm
Compound = CCCCCCCCCCCCCCCCCC(=O)N[C@@H](CCCCN)C(=O)N[C@@H](CCCCN)C(=O)N[C@@H](CCCNC(=N)N)C(=O)N[C@@H](CCCCN)C(N)=O; system = K12; endpoint = MBC; result = 128 µg/mL
Compound = CCCCCCCCCC(=O)NCC(=O)N[C@@H](CC(C)C)C(=O)N[C@@H](CC(C)C)C(=O)N[C@@H](CCCCN)C(=O)N[C@@H](CCCNC(=N)N)C(=O)N[C@H](C(=O)N[C@@H](CCCCN)C(=O)N[C@H](C(=O)N[C@@H](CC(C)C)C(=O)N[C@@H](CC(C)C)C(N)=O)[C@@H](C)O)[C@@H](C)CC; test = checkerboard; system = ATCC 25922; setting = together with: rifampicin; endpoint = FIC index; result = 0.5
Compound = C[C@@H](O)[C@H](N)C(=O)N[C@@H](CS)C(=O)N[C@@H](Cc1ccc(O)cc1)C(=O)N[C@@H](CS)C(=O)N[C@@H](CCCNC(=N)N)C(=O)N[C@H](C(=O)NCC(N)=O)[C@@H](C)O; test = bactericidal activity, virtual colony count; system = ATCC 25922; setting = 2 h; endpoint = EC50; result = 28.2 ± 3.27 µM
Compound = CC[C@H](C)[C@H](NC(=O)[C@H](CCCCN)NC(=O)[C@H](CCCCN)NC(=O)[C@H](CC(C)C)NC(=O)[C@H](CCCCN)NC(=O)[C@H](CCC(=O)O)NC(=O)[C@H](CCCCN)NC(=O)[C@@H](NC(=O)[C@H](CCCCN)NC(=O)[C@H](CC(N)=O)NC(=O)[C@H](CCCNC(=N)N)NC(=O)[C@H](Cc1ccccc1)NC(=O)[C@H](CCCCN)NC(=O)[C@H](CCCNC(=N)N)NC(=O)[C@H](CC(C)C)NC(=O)[C@H](CCCNC(=N)N)NC(=O)[C@H](CCCCN)NC(=O)[C@H](CCCNC(=N)N)NC(=O)[C@H](CC(C)C)NC(=O)[C@@H](N)CC(C)C)[C@@H](C)CC)C(=O)NCC(=O)N[C@@H](CCC(N)=O)C(=O)N[C@@H](CCCCN)C(=O)N[C@H](C(=O)N[C@@H](CCC(N)=O)C(=O)NCC(=O)N[C@@H](Cc1ccccc1)C(=O)N[C@H](C(=O)N1CCC[C@H]1C(=O)N[C@@H](CCCCN)C(=O)N[C@@H](CC(C)C)C(=O)N[C@H](C(=O)N1CCC[C@H]1C(=O)N[C@@H](CCCNC(=N)N)C(=O)N[C@H](C(=O)N[C@@H](CCC(=O)O)C(=O)N[C@@H](CO)C(=O)O)[C@@H](C)O)C(C)C)C(C)C)[C@@H](C)CC; test = inhibition zone; system = TOP10; endpoint = lethal concentration; result = 1.93 µM
Compound = CCCCCCCCCCCCCCCC(=O)N[C@@H](CCCCN)C(=O)N[C@@H](CCCCN)C(=O)N[C@@H](CCCCN)C(=O)N[C@@H](CCCCN)C(=O)N[C@@H](Cc1c[nH]cn1)C(N)=O; system = K12; endpoint = MBC; result = 128 µg/mL
Compound = CC[C@H](C)[C@H](NC(=O)[C@H](CO)NC(=O)[C@H](CO)NC(=O)[C@H](Cc1ccccc1)NC(=O)CN)C(=O)N[C@@H](Cc1ccccc1)C(=O)N[C@@H](CCCNC(=N)N)C(=O)NCC(=O)N[C@H](C(=O)N[C@@H](C)C(=O)N[C@@H](CCCCN)C(N)=O)C(C)C; system = ATCC 8739; setting = together with: 150 mM NaCl; endpoint = MBC; result = > 128 µM
Compound = CC[C@H](C)[C@H](NC(=O)[C@H](CCCNC(=N)N)NC(=O)[C@@H](N)CCCNC(=N)N)C(=O)N[C@@H](CCCNC(=N)N)C(=O)N[C@@H](Cc1ccccc1)C(=O)N[C@@H](CCCNC(=N)N)C(=O)N1CCC[C@H]1C(=O)N1CCC[C@H]1C(=O)N[C@@H](Cc1ccc(O)cc1)C(=O)N[C@@H](CC(C)C)C(=O)N1CCC[C@H]1C(=O)N[C@@H](CCCNC(=N)N)C(=O)N1CCC[C@H]1C(=O)NCC(=O)N[C@@H](CCCNC(=N)N)C(=O)N[C@@H](CCCNC(=N)N)C(=O)N1CCC[C@H]1C(=O)N[C@@H](CCCNC(=N)N)C(=O)N[C@@H](Cc1ccccc1)C(=O)N1CCC[C@H]1C(=O)N1CCC[C@H]1C(=O)N1CCC[C@H]1C(=O)N[C@@H](Cc1ccccc1)C(=O)N1CCC[C@H]1C(=O)N[C@H](C(=O)N1CCC[C@H]1C(=O)N[C@@H](CCCNC(=N)N)C(=O)N[C@H](C(=O)N1CCC[C@H]1C(=O)N[C@@H](CCCNC(=N)N)C(=O)N[C@H](C(=O)N1CCC[C@H]1C(=O)O)[C@@H](C)CC)[C@@H](C)CC)[C@@H](C)CC; test = membrane permeabilization, propidium iodide flow cytometry; system = BW25113, Mueller-Hinton broth; setting = 8 µM, 15 min, 37 °C; endpoint = PI-positive cells; result = ~70%
Compound = CC[C@H](C)[C@H](NC(=O)[C@H](CCCCN)NC(=O)[C@H](CCCCN)NC(=O)[C@H](CC(C)C)NC(=O)[C@H](CCCCN)NC(=O)[C@H](CCC(=O)O)NC(=O)[C@H](CCCCN)NC(=O)[C@@H](NC(=O)[C@H](CCCCN)NC(=O)[C@H](CC(N)=O)NC(=O)[C@H](CCCNC(=N)N)NC(=O)[C@H](Cc1ccccc1)NC(=O)[C@H](CCCCN)NC(=O)[C@H](CCCNC(=N)N)NC(=O)[C@H](CC(C)C)NC(=O)[C@H](CCCNC(=N)N)NC(=O)[C@H](CCCCN)NC(=O)[C@H](CCCNC(=N)N)NC(=O)[C@H](CC(C)C)NC(=O)[C@@H](N)CCCNC(=N)N)[C@@H](C)CC)C(=O)NCC(=O)N[C@@H](CCC(N)=O)C(=O)N[C@@H](CCCCN)C(=O)N[C@H](C(=O)N[C@@H](CCC(N)=O)C(=O)NCC(=O)N[C@@H](Cc1ccccc1)C(=O)N[C@H](C(=O)N1CCC[C@H]1C(=O)N[C@@H](CCCCN)C(=O)N[C@@H](CC(C)C)C(=O)N[C@@H](CCC(N)=O)C(=O)N1CCC[C@H]1C(=O)N[C@@H](CO)C(=O)N[C@@H](CCCCN)C(=O)N[C@@H](CCC(N)=O)C(=O)N[C@@H](CO)C(=O)O)C(C)C)[C@@H](C)CC; test = inhibition zone; system = DH5α; endpoint = lethal concentration; result = 2.51 µM
Compound = CC[C@H](C)[C@H](NC(=O)[C@H](CO)NC(=O)[C@H](CO)NC(=O)[C@H](Cc1ccccc1)NC(=O)CN)C(=O)N[C@@H](Cc1ccccc1)C(=O)N[C@@H](CCCNC(=N)N)C(N)=O; system = ATCC 8739; setting = together with: 2.5 mM CaCl2; endpoint = MBC; result = > 128 µM
Compound = C[C@]1(COC(=O)Cc2ccc(O)c(O)c2)[C@H](C(=O)O)N2C(=O)/C(=C/c3ccccn3)[C@H]2S1(=O)=O; test = broth microdilution; system = MG1655 expressing CTX-M-2; setting = 16 µg/mL; endpoint = MIC of ceftazidime; result = ≤ 1 µg/mL
Compound = CC(C)=CCNCCOC1C2CC3CC(C2)CC1C3 (stereo not shown); test = growth; endpoint = IC50; result = 9 µg/mL (≈ 34.2 µM)
Compound = CCCCCCCC(=O)NCC(=O)N[C@@H](CC(C)C)C(=O)N[C@@H](CC(C)C)C(=O)N[C@@H](CCCCN)C(=O)N[C@@H](CCCNC(=N)N)C(=O)N[C@H](C(=O)N[C@@H](CCCCN)C(=O)N[C@H](C(=O)N[C@@H](CC(C)C)C(=O)N[C@@H](CC(C)C)C(N)=O)[C@@H](C)O)[C@@H](C)CC; test = checkerboard; system = ATCC 25922; setting = together with: polymyxin B; endpoint = FIC index; result = 0.5
Compound = CC[C@H](C)[C@H](NC(=O)[C@H](CCCCN)NC(=O)[C@H](CCCCN)NC(=O)[C@H](CC(C)C)NC(=O)[C@H](CCCCN)NC(=O)[C@H](CCC(=O)O)NC(=O)[C@H](CCCCN)NC(=O)[C@@H](NC(=O)[C@H](CCCCN)NC(=O)[C@H](CC(N)=O)NC(=O)[C@H](CCCNC(=N)N)NC(=O)[C@H](Cc1ccccc1)NC(=O)[C@H](CCCCN)NC(=O)[C@H](CCCNC(=N)N)NC(=O)[C@H](CC(C)C)NC(=O)[C@H](CCCNC(=N)N)NC(=O)[C@H](CCCCN)NC(=O)[C@H](CCCNC(=N)N)NC(=O)[C@@H](N)CC(C)C)[C@@H](C)CC)C(=O)NCC(=O)N[C@@H](CCC(N)=O)C(=O)N[C@@H](CCCCN)C(=O)N[C@H](C(=O)N[C@@H](CCC(N)=O)C(=O)NCC(=O)N[C@@H](Cc1ccccc1)C(=O)N[C@H](C(=O)N1CCC[C@H]1C(=O)N[C@@H](CCCCN)C(=O)N[C@@H](CC(C)C)C(=O)O)C(C)C)[C@@H](C)CC; test = inhibition zone; system = Am. J23a; endpoint = lethal concentration; result = 1.33 µM
Compound = CC[C@H](C)[C@H](NC(=O)[C@H](CCCNC(=N)N)NC(=O)[C@H](CCCCN)NC(=O)[C@H](CC(C)C)NC(=O)[C@H](CC(C)C)NC(=O)CN)C(=O)N[C@@H](CCCCN)C(=O)N[C@H](C(=O)N[C@@H](CC(C)C)C(=O)N[C@@H](CC(C)C)C(=O)NCCCC[C@H](NC(=O)[C@H](CCCCNC(=O)[C@H](CC(C)C)NC(=O)[C@H](CC(C)C)NC(=O)[C@@H](NC(=O)[C@H](CCCCN)NC(=O)[C@@H](NC(=O)[C@H](CCCNC(=N)N)NC(=O)[C@H](CCCCN)NC(=O)[C@H](CC(C)C)NC(=O)[C@H](CC(C)C)NC(=O)CN)[C@@H](C)CC)[C@@H](C)O)NC(=O)[C@H](CC(C)C)NC(=O)[C@H](CC(C)C)NC(=O)[C@@H](NC(=O)[C@H](CCCCN)NC(=O)[C@@H](NC(=O)[C@H](CCCNC(=N)N)NC(=O)[C@H](CCCCN)NC(=O)[C@H](CC(C)C)NC(=O)[C@H](CC(C)C)NC(=O)CN)[C@@H](C)CC)[C@@H](C)O)C(N)=O)[C@@H](C)O; test = checkerboard; system = ATCC 25922; setting = together with: rifampicin; endpoint = FIC index; result = 0.312
Compound = COc1ccc([C@H]2N[C@H](C(=O)O)Cc3c2[nH]c2ccccc32)c(OC)c1; system = BL21(DE3); setting = 250 µM, 18 h; endpoint = growth inhibition; result = 0%

A few entries again:
Compound = CC[C@H](C)[C@H](NC(=O)[C@H](CCCCN)NC(=O)[C@H](CCCCN)NC(=O)[C@H](CC(C)C)NC(=O)[C@H](CCCCN)NC(=O)[C@H](CCC(=O)O)NC(=O)[C@H](CCCCN)NC(=O)[C@@H](NC(=O)[C@H](CCCCN)NC(=O)[C@H](CC(N)=O)NC(=O)[C@H](CCCNC(=N)N)NC(=O)[C@H](Cc1ccccc1)NC(=O)[C@H](CCCCN)NC(=O)[C@H](CCCNC(=N)N)NC(=O)[C@H](CC(C)C)NC(=O)[C@H](CCCNC(=N)N)NC(=O)[C@H](CCCCN)NC(=O)[C@H](CCCNC(=N)N)NC(=O)[C@@H](N)CC(C)C)[C@@H](C)CC)C(=O)NCC(=O)N[C@@H](CCC(N)=O)C(=O)N[C@@H](CCCCN)C(=O)N[C@H](C(=O)N[C@@H](CCC(N)=O)C(=O)NCC(=O)N[C@@H](Cc1ccccc1)C(=O)N[C@H](C(=O)N1CCC[C@H]1C(=O)N[C@@H](CCCCN)C(=O)N[C@@H](CC(C)C)C(=O)O)C(C)C)[C@@H](C)CC; test = inhibition zone; system = Am. J23a; endpoint = lethal concentration; result = 1.33 µM
